Measurements gathered from unrelated publications.
Each numbered part is a random draw from the data of one study; scales do not carry over between parts. Changes are numbered by the printed parent chain.

Set 1
Target: FOSL2, bZIP domain (human)
Method: DHFR protein complementation
Sample: yeast
Notes: single substitutions, most at no-binding floor
Baseline: wild-type JUN-FOS pair
Reading: higher = stronger binding
Endpoint: binding fitness
Parent: JUN, bZIP domain (human); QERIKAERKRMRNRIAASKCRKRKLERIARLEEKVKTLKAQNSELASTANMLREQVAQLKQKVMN; partner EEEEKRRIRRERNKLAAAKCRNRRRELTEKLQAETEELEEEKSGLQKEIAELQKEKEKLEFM
S47Y: -0.0709 natural log
V56E: -1.28 natural log
A46C: -0.129 natural log
E33S: -0.0644 natural log
T48E: -0.0142 natural log
V56S: -0.983 natural log
M51S: 0.0625 natural log
E33V: -0.143 natural log
L31D: -0.585 natural log
E33L: 0.00987 natural log
T37C: 0.0992 natural log
Q55A: 0.108 natural log
T48R: 0.124 natural log
I28N: -0.0762 natural log
L52I: -0.157 natural log
L38H: -1.13 natural log
A49F: -0.619 natural log
Q58H: 0.0553 natural log
L31F: -0.113 natural log
E44V: 0.0378 natural log
R53K: 0.00654 natural log
T48Q: 0.104 natural log
A57K: 0.155 natural log

Set 2
Target: ABI1, truncated, D143A, DHFR fusion (Arabidopsis thaliana)
Method: DHFR PCA, deep sequencing
Sample: yeast
Notes: methotrexate growth selection, single substitutions
With: (+)-ABA 200 µM
Baseline: wild-type fitted maximum
Reading: higher = stronger binding
Endpoint: relative binding score
Parent: PYL1, truncated, DHFR fusion (Arabidopsis thaliana); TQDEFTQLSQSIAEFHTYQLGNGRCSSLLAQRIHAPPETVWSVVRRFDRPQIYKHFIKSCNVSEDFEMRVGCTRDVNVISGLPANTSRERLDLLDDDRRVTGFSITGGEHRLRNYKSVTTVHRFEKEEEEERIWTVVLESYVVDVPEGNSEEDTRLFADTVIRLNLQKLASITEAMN; partner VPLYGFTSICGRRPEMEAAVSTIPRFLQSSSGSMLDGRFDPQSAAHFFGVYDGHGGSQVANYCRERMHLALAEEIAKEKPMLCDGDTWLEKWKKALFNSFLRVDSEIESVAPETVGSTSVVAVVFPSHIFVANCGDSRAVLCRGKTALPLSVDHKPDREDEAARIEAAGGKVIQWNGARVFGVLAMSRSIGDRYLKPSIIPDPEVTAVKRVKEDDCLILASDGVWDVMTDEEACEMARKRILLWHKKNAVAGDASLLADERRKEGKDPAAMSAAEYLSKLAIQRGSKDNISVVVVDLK
L93F: 96.9%
F103E: -2.82%
L28I: 96.6%
R163E: 72.4%
S150C: 91.3%
F56R: 0.375%
R99S: 69.2%
E127T: 100%
C60K: -27.7%
T1M: 99%
P146A: 87%
E151H: 91.3%
L20N: 97.7%
V145H: 31.1%
S104M: 46%
L93D: 57.6%
T39V: 101%
E4R: 84.8%
A30F: 104%

Set 3
Target: UBE2G2 UBC core domain (UniProt P60604)
Method: yeast two-hybrid
Sample: yeast
Notes: mostly zero background
Baseline: not given
Reading: higher = stronger interaction
Endpoint: lacZ reporter activity
B1: RFPL2 RING domain (UniProt O75678); chain MAALFQEASSCPVCSDYLEKPMSLECGCAVCLKCINSLQKEPHGEDLLCCCSSMVSRKNKIRR
B2: UBE4A RING domain (UniProt Q14139); chain LQQQEEETYADACDEFLDPIMSTLMCDPVVLPSSRVTVDRSTIARHLLSDQTDPFNRSPLTMDQIRPNTELKEKIQRWLAERKQQKEQLE
B3: NSMCE1 RING domain (UniProt Q8WV22); chain RETYPDAVKICNICHSLLIQGQSCETCGIRMHLPCVAKYFQSNAEPRCPHCNDYWPHEIPKV
B4: TRIM3 RING domain (UniProt O75382); chain VQPMDKQFLVCSICLDRYQCPKVLPCLHTFCERCLQNYIPAQSLTLSCPVCRQTSILPEQGV
B5: MSL2 RING domain (UniProt Q9HCI7); chain LLPYFRQSLSCCVCGHLLQDPIAPTNSTCQHYVCKTCKGKKMMMKPSCSWCKDYEQFEENKQ
B6: RNF175 RING domain (UniProt Q8N4F7); chain LPTRSLSDNICAVCGQKIIVELDEEGLIENTYQLSCNHVFHEFCIRGWCIVGKKQTCPYCKEKVDLKRMIS
B7: ANKIB1 RING domain (UniProt Q9P2G1); chain LSPGDLDTSLCDICMCSISVFEDPVDMPCGHDFCRGCWESFLNLKIQEGEAHNIFCPAYDCFQLVPVDIIE
B8: RNF43 RING domain (UniProt Q68DV7); chain SGSSCSSAPVCAICLEEFSEGQELRVISCLHEFHRNCVDPWLHQHRTCPLCMFNITEGDSFS
B9: TRIM10 RING domain (UniProt Q9UDY6); chain SVTSLADEVNCPICQGTLREPVTIDCGHNFCRACLTRYCEIPGPDLEESPTCPLCKEPFRPGSFRP
B10: TRIM55 RING domain (UniProt Q9BYV6); chain TMDNLEKQLICPICLEMFTKPVVILPCQHNLCRKCASDIFQASNPYLPTRGGTTMASGGRFRCPSCRHEVVLDRHG
B11: RNF5 RING domain (UniProt Q99942); chain ERGGAGATFECNICLETAREAVVSVCGHLYCWPCLHQWLETRPERQECPVCKAGISREKVVP
B12: RNF14 RING domain (UniProt Q9UBS8); chain IKCFNSKLFLCSICFCEKLGSECMYFLECRHVYCKACLKDYFEIQIRDGQVQCLNCPEPKCPSVATPGQVK
Construct (chain): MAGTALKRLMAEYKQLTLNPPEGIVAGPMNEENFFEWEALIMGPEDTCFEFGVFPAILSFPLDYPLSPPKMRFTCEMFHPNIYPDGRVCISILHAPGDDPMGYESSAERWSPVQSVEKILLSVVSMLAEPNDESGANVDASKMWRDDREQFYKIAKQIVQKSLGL
B1 (RFPL2 RING domain): 0
B2 (UBE4A RING domain): 6550
B3 (NSMCE1 RING domain): 0
B4 (TRIM3 RING domain): 11800
B5 (MSL2 RING domain): 0
B6 (RNF175 RING domain): 0
B7 (ANKIB1 RING domain): 0
FLKKLEQSFMCVCCQELVYQPVTTECFHNVCKDCLQRSFKAQVFSCPACRHDLGQNYIMI (UHRF2 RING domain (UniProt Q96PU4)): 0
B8 (RNF43 RING domain): 1330
SYEDKSNDFVCPICFDMIEEAYMTKCGHSFCYKCIHQSLEDNNRCPKCNYVVDNIDHLY (COP1 RING domain (UniProt Q8NHY2)): 0
B9 (TRIM10 RING domain): 0
B10 (TRIM55 RING domain): 0
B11 (RNF5 RING domain): 0
MANWVFCNRCFQPPHRTSCFSLTNCGHVYCDACLGKGKKNECLICKAPCRTVLLSK (RNF212 RING domain (UniProt Q495C1)): 0
B12 (RNF14 RING domain): 0

Set 4
Target: Hepatocyte nuclear factor 3-beta, forkhead domain (FOXA2, Homo sapiens, UniProt Q9Y261, residues 142-269)
Method: protein-binding microarray
Molecule type: double-stranded DNA, one strand shown
Sample: in vitro
Concentration: not given
Notes: k-mer, scored over probes, only values ≥0.25
Reading: higher = stronger binding
Endpoint: E-score
Target sequence (chain): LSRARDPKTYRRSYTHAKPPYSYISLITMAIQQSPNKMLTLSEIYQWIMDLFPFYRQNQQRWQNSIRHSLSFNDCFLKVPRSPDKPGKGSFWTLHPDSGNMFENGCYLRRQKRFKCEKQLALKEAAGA
ATATAGAT: 0.344
ATATGGAG: 0.252
AAATGTGT: 0.272
ACATGACA: 0.304
TAAGTACA: 0.278
TGTATAAA: 0.341
ACACACAT: 0.406
ATACAAAC: 0.38
CACATGAC: 0.283
ACATGGTA: 0.255
CTATACTA: 0.296
TGTGGTAA: 0.307
ATAAACAG: 0.301
AGGTAAAC: 0.251
TGAAATAA: 0.271
ATTGTAGA: 0.277
ACCACACA: 0.254
CATATTAA: 0.403
CATCAATC: 0.287
TATACACA: 0.38
GTACTATA: 0.348
GCAAACAA: 0.353
ATATTAGA: 0.34

For quick reference, copied from above (set 2):
T39V: 101%
R99S: 69.2%
F103E: -2.82%
V145H: 31.1%
A30F: 104%
